# Experimental data gathered from unrelated publications.
# Every numbered part comes from another study and shows a few of its results, in no order. Several values in a cell are separate wells, animals, samples, runs or records. Changes are numbered by the printed parent chain.

# Series 1 — target: CCNB2, cyclin fold, Cln2 fusion (human); method: yeast growth competition, sequencing; sample: yeast; setting: weak parent motif; relative to: not given; direction: higher = stronger binding
# Parent: viral docking peptide; PTARRRLLHDLDT; partner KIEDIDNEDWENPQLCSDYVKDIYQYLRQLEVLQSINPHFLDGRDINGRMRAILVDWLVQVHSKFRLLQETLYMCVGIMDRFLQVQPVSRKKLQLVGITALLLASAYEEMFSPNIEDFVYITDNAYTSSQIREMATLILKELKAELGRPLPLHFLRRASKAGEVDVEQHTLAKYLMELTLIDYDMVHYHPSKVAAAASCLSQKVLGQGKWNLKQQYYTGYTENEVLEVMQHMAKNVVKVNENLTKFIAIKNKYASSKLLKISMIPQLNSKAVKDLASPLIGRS
Change,normalised enrichment score
PTARRRALHDLDT [L7A],-0.0728
PTARKRLLFDLDT [R5K H9F],0.525
PTARRRLLHDLAT [D12A],-0.00489
PTARAAAAHDLDT [R5A R6A L7A L8A],-0.0537
PTARARLLHDLDT [R5A],0.272
PTARRRLLHDLDA [T13A],0.429
PTARRRLLFDLDT [H9F],0.49
PTARRRLLHALDT [D10A],0.416

# Series 2 — observed: binding; method: phage display NGS; molecule type: peptide; concentration: concentration not given; relative to: input library
# Target: UDP-N-acetylglucosamine--peptide N-acetylglucosaminyltransferase 110 kDa subunit (OGT, Homo sapiens, UniProt O15294)
# Chain of UniProt O15294 (whole entry, looked up): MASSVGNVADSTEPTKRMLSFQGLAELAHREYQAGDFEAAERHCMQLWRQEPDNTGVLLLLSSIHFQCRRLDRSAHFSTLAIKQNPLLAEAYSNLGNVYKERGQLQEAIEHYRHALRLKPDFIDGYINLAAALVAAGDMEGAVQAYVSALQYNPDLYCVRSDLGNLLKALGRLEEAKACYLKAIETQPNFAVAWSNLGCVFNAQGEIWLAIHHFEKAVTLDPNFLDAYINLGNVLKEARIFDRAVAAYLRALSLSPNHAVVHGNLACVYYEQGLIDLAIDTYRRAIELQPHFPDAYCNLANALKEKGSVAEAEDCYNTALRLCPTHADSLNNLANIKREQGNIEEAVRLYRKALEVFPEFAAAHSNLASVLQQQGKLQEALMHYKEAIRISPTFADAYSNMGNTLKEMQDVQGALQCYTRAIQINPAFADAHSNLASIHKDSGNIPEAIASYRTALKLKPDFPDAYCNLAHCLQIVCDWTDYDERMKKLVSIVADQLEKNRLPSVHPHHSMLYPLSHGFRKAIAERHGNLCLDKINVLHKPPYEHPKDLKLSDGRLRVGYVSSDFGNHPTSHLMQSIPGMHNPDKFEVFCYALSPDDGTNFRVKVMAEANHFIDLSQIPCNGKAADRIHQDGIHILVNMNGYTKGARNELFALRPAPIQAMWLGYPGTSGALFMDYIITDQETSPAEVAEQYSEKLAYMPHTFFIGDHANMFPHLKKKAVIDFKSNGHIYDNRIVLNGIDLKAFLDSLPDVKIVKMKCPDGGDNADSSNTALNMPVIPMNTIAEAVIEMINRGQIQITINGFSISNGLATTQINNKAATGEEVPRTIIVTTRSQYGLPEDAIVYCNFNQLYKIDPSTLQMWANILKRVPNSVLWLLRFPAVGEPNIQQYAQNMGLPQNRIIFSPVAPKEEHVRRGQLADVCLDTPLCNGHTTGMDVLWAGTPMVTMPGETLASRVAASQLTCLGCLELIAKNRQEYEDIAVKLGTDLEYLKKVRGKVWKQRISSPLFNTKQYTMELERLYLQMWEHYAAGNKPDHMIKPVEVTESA
Sequence,enrichment fold change
YQNHTHHVYEVYHV,2.85
HLHHYDDYYTHDPVI,6.82
HQQHDHHKDNNGQFM,2.72
NRYTETRHMHQVHHS,5.68
IVTGRHPHTTQHYTH,5.31
QLHMLRQQHAHSGAT,5.93
HFQIHQHHFMGDDD,9.62
HYIPHFPWQWDFDHH,8.06

# Further values, each from its own experiment
SMILES,cell line,conditions,scale,quantity,result
CCC1=C(C)CN(C(=O)NCCc2ccc(S(=O)(=O)NC(=O)N[C@H]3CC[C@H](C)CC3)cc2)C1=O,HEK-293T/ACE2,"concentration not given, 16 (unit not given)",relative to: vehicle,viability,102%
CNCc1ccc(-c2[nH]c3cc(F)cc4c3c2CCNC4=O)cc1,RPE-1 BRCA2-/-,"0.01 µM, unit not given",relative to: untreated,clonogenic survival,0.299 and 0.131 and 0.21
O=C1CCC(N2Cc3c(ccc4c3OCC43CCN(Cc4ccccc4)CC3)C2=O)C(=O)N1 (stereo not shown),Caco-2,"10 µM, 120 min, basolateral to apical",,recovery,107%

# Repeated from above (series 1):
Change,normalised enrichment score
PTARRRLLHALDT [D10A],0.416
